Measurements gathered from unrelated publications.
Each line is one published result; not all experiments were run side by side.
Cell line: HEK293

COc1ccc2cc1Oc1cc3c(cc1OC)CCN(C)C3Cc1ccc(cc1)Oc1c(O)c(OC)cc3c1C(C2)N(C)CC3 (centres unmarked)  selectivity index (relative to: CC50 HEK293 over INDO IC50): 90.8
CC(C)C[C@H](NC(=O)[C@@H](CCCCN)NC(=O)[C@H](Cc1c[nH]cn1)NC(=O)[C@H](CO)NC(=O)[C@H](Cc1c[nH]c2ccccc12)NC(=O)[C@H](Cc1c[nH]cn1)NC(=O)[C@@H]1CCC(=O)N1)C(=O)N[C@@H](CCCNC(=N)N)C(=O)N1CCC[C@H]1C(=O)NCC(N)=O  IC50 (cell growth or viability, SRB): 0.0248 µM
CC(C)C[C@@H](NC(=O)CCNc1ccc([N+](=O)[O-])c2nonc12)C(=O)N[C@H](CC(C)C)C(=O)N[C@H](CC(C)C)C(=O)N[C@H](CC(C)C)C(=O)N[C@H](Cc1ccc(OP(=O)(O)O)cc1)C(=O)O  viability (MTT; 200 µM, 24 h): > 60%
CCCCCCCC(=O)SCCC=CC1CC(=O)NCc2nc(cs2)C2=NC(C)(CS2)C(=O)NC(C(C)C)C(=O)O1 (centres unmarked)  GI50 (cell growth or viability): > 10 µM
Cc1nn(-c2ccccc2)c(O)c1C(c1ccc(N(C)C)cc1)c1c(C)nn(-c2ccccc2)c1O  IC50 (cell growth or viability, MTT; 48 h): > 40 µM
CC(=O)[C@@H]1CCCN1C(=O)[C@@H]1CCCN1C(=O)[C@H](Cc1ccccc1)NC(=O)[C@@H](NC(=O)[C@@H](NC(=O)[C@@H](NC(=O)[C@@H]1CCCN1C(=O)[C@H](C)NC(=O)OC(C)(C)C)C(C)C)C(C)C)C(C)C  IC50 (cell growth or viability, SRB): 362 µM
O=C(O)c1ccc(-n2cc(/C=N/Nc3cccc(Cl)c3F)c(-c3ccc4ccccc4c3)n2)cc1  selectivity ratio (up to; relative to: HEK293 IC50 over MIC): ≤ 48.7
COc1ccc(C(c2c(C)nn(-c3ccccc3)c2O)c2c(C)nn(-c3ccccc3)c2O)cc1  IC50 (cell growth or viability, MTT; 48 h): > 40 µM
CC[C@H](C)[C@H](NC(=O)CNC(=O)[C@H](CCCCN)NC(=O)[C@H](CO)NC(=O)[C@H](CCCCN)NC(=O)CNC(=O)[C@H](CC(=O)O)NC(=O)[C@H](CCCCN)NC(=O)[C@H](CO)NC(=O)[C@@H](NC(=O)[C@H](CC(C)C)NC(=O)[C@H](CCCNC(=N)N)NC(=O)[C@@H](NC(=O)[C@H](CCC(=O)O)NC(=O)[C@H](C)NC(=O)[C@H](CCCNC(=N)N)NC(=O)[C@H](CCCNC(=N)N)NC(=O)[C@H](CCCNC(=N)N)NC(=O)[C@H](CCC(N)=O)NC(=O)[C@H](CCCNC(=N)N)NC(=O)[C@H](CCCNC(=N)N)NC(=O)[C@H](CCCCN)NC(=O)[C@H](CCCCN)NC(=O)[C@H](CCCNC(=N)N)NC(=O)CNC(=O)[C@@H](N)Cc1ccc(O)cc1)[C@@H](C)CC)C(C)C)C(=O)N[C@@H](C)C(=O)N[C@@H](Cc1ccc(O)cc1)C(=O)N[C@H](C(=O)N[C@@H](CCC(=O)O)C(=O)N[C@@H](Cc1ccccc1)C(=O)N[C@@H](CCCCN)C(=O)O)[C@@H](C)CC  mRNA level (RT-PCR, item: HBB; concentration not given): no effect
Cc1nn(-c2ccccc2)c(O)c1C(c1ccc(F)cc1)c1c(C)nn(-c2ccccc2)c1O  IC50 (cell growth or viability, MTT; 48 h): > 40 µM
COc1cc2c3cc1Oc1cc(ccc1O)CC1c4c(cc(OC)c(O)c4Oc4ccc(cc4)CC3N(C)CC2)CCN1C (centres unmarked)  selectivity index (relative to: HEK293 CC50 over parasite IC50): > 100 fold
Cc1nn(-c2ccccc2)c(O)c1C(c1ccccc1O)c1c(C)nn(-c2ccccc2)c1O  IC50 (cell growth or viability, MTT; 48 h): > 40 µM
C#CCCCC[C@H](C)C[C@@H](C)C(=O)N(C)[C@H](C(=O)N(C)[C@@H](Cc1ccccc1)C(=O)N1CCC[C@H]1C(=O)N1CCC[C@H]1C(C)=O)C(C)C  IC50 (cell growth or viability, SRB): 5760 µM
COc1ccc2c(c1)C1CC(C)(N2)c2c(C)nc3ccc(OC)cc3c21 (centres unmarked)  selectivity index (relative to: HEK293 CC50 over parasite IC50): > 100 fold

Repeated from above:
CC(=O)[C@@H]1CCCN1C(=O)[C@@H]1CCCN1C(=O)[C@H](Cc1ccccc1)NC(=O)[C@@H](NC(=O)[C@@H](NC(=O)[C@@H](NC(=O)[C@@H]1CCCN1C(=O)[C@H](C)NC(=O)OC(C)(C)C)C(C)C)C(C)C)C(C)C  IC50 (cell growth or viability, SRB): 362 µM
O=C(O)c1ccc(-n2cc(/C=N/Nc3cccc(Cl)c3F)c(-c3ccc4ccccc4c3)n2)cc1  selectivity ratio (up to; relative to: HEK293 IC50 over MIC): ≤ 48.7
